Measured values of several laboratories.
Each line is one published result; not all experiments were run side by side.
Tumor necrosis factor receptor superfamily member 9/Nectin-4: Tumor necrosis factor receptor superfamily member 9/Nectin-4 (Homo sapiens, UniProt Q07011+Q96NY8)
Sequence of UniProt Q96NY8 (whole entry, looked up): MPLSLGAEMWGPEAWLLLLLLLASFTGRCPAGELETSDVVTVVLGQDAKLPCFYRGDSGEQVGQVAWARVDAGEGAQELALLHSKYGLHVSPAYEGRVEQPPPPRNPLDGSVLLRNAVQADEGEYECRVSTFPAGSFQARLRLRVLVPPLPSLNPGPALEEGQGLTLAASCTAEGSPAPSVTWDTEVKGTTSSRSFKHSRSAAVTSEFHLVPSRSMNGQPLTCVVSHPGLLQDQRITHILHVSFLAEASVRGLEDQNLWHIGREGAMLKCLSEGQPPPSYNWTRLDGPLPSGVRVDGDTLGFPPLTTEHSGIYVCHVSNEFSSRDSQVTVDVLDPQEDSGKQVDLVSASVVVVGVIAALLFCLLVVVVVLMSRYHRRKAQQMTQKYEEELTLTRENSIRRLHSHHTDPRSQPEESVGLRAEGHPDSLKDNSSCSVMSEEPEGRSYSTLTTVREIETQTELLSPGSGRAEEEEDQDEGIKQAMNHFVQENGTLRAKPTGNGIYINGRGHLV
Sequence of UniProt Q07011 (whole entry, looked up): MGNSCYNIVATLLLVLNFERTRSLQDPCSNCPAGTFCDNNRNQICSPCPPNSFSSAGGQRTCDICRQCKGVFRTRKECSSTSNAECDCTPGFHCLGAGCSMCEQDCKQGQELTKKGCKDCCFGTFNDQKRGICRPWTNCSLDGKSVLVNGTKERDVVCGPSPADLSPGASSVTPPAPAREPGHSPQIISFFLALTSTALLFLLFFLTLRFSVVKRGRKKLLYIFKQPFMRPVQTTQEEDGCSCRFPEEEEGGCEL
ABCG2: Broad substrate specificity ATP-binding cassette transporter ABCG2 (ABCG2, Homo sapiens, UniProt Q9UNQ0)
Sequence of UniProt Q9UNQ0 (whole entry, looked up): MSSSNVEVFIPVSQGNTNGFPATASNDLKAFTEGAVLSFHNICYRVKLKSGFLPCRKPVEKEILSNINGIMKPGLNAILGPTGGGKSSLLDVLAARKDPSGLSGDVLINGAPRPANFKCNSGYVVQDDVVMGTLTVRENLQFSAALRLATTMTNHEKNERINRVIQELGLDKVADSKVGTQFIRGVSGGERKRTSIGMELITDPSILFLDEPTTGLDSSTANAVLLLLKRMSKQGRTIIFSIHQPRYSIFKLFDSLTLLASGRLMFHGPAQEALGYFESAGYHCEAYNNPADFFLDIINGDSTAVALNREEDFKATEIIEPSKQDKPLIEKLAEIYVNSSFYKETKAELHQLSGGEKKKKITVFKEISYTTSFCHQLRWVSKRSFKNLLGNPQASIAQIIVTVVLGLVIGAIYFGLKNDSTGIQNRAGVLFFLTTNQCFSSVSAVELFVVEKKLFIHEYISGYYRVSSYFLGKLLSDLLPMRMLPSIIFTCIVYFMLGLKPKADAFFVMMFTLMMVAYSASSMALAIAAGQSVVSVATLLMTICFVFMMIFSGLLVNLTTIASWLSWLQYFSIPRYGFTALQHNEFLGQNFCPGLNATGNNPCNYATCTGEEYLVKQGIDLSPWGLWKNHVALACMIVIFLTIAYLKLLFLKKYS
CACNA1C: Voltage-dependent L-type calcium channel subunit alpha-1C (CACNA1C, Homo sapiens, UniProt Q13936)
Sequence of UniProt Q13936 (whole entry, looked up): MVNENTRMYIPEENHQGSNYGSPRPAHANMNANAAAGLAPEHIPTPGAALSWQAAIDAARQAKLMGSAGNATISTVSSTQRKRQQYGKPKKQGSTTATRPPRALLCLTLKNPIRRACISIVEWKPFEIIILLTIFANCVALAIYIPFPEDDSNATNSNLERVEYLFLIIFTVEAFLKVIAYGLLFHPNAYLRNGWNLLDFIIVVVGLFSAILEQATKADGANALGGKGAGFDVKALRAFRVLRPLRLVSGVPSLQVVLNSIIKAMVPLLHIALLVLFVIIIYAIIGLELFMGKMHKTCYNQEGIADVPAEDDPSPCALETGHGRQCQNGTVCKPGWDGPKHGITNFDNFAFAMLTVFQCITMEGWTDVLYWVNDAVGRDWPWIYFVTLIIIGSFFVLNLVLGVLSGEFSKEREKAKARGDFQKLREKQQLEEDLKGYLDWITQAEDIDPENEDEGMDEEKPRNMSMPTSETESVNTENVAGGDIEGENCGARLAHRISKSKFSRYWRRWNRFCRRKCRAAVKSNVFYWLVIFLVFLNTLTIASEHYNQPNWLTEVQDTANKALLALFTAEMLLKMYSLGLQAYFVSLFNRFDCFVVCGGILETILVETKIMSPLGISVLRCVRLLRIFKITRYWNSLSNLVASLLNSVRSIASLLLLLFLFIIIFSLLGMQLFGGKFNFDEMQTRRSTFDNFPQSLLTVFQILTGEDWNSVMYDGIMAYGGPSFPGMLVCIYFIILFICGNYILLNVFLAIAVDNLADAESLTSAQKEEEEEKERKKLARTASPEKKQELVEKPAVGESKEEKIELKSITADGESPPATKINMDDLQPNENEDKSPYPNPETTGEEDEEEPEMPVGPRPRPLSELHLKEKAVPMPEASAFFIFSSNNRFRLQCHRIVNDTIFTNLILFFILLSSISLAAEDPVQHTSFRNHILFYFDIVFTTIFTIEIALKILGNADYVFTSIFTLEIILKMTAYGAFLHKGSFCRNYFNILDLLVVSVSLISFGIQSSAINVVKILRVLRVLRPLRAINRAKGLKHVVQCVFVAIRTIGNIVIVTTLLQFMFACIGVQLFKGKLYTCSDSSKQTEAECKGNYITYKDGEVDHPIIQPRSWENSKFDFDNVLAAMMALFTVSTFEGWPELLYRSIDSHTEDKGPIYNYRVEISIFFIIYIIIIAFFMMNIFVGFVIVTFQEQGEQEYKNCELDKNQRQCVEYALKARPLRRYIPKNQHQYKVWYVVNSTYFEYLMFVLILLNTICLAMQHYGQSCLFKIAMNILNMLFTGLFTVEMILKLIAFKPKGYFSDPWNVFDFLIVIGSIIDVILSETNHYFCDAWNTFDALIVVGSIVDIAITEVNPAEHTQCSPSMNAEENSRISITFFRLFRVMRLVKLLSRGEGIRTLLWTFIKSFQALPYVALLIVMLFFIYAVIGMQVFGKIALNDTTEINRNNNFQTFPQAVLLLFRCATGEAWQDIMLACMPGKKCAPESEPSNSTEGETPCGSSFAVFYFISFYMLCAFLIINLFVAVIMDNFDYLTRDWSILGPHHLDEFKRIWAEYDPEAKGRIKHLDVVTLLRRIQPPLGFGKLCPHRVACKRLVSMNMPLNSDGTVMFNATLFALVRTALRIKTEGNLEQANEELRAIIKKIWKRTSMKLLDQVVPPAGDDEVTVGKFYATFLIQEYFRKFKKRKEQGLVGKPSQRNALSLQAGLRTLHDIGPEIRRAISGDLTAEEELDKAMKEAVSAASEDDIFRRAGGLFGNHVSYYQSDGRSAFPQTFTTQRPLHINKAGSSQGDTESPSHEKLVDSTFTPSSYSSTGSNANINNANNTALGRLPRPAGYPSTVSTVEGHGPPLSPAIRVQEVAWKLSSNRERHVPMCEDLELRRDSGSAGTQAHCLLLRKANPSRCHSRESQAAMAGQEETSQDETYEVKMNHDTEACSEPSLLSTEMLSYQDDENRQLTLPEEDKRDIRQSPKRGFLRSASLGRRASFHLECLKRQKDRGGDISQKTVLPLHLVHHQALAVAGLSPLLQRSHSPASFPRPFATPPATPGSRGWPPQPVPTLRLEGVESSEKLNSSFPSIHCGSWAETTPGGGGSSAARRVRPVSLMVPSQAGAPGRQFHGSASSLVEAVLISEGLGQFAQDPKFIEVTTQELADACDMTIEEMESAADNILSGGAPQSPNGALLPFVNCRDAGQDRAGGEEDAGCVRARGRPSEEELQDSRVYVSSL
SLC47A2: Multidrug and toxin extrusion protein 2 (SLC47A2, Homo sapiens, UniProt Q86VL8)
Sequence of UniProt Q86VL8 (whole entry, looked up): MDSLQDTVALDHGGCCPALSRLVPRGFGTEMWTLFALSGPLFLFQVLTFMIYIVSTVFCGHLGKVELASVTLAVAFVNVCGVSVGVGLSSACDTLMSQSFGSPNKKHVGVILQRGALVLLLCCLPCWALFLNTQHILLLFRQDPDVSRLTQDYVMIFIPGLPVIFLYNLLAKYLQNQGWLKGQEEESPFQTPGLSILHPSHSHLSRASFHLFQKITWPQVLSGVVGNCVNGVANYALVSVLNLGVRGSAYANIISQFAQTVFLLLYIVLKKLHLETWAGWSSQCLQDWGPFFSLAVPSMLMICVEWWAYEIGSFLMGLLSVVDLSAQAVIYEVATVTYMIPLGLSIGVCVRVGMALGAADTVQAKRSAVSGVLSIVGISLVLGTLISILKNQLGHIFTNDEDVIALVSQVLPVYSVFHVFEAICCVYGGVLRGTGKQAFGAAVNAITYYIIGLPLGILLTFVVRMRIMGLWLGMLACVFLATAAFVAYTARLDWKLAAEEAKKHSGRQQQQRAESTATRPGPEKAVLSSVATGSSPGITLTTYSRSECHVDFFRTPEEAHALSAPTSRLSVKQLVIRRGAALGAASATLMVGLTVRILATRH
Sequence of UniProt O00311 (whole entry, looked up): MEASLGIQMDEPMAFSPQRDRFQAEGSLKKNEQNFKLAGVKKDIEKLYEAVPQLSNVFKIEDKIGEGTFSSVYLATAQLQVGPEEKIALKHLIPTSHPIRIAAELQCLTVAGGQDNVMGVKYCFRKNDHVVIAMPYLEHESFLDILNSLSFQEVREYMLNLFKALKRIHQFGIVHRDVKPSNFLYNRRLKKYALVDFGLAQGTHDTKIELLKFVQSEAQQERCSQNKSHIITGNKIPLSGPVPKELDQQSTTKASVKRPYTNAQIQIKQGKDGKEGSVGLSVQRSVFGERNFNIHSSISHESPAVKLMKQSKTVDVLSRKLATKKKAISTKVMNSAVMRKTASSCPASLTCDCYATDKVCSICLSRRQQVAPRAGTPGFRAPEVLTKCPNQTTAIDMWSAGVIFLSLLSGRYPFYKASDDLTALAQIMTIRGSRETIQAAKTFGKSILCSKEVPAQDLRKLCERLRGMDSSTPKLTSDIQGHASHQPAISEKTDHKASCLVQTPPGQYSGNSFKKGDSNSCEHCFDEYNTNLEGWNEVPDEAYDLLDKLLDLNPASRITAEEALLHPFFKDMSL

SMILES	target or system	assay	system	setting	how to read	endpoint	result
CCCC[C@@H]1NC(=O)[C@H](Cc2ccc(O)cc2)NC(=O)[C@@H]2CCCN2C(=O)[C@H](CC(=O)O)NC(=O)[C@H](C)NC(=O)[C@H](Cc2ccccc2)NC(=O)[C@@H]2CSCCC(=O)N3CN(CN(C3)C(=O)CCSC[C@H](NC(C)=O)C(=O)N[C@@H](CC(C)(C)C)C(=O)N3CCC[C@H]3C(=O)N[C@@H](CCC(=O)O)C(=O)N[C@H](CCCCNC(=O)CCc3cn(CCOCCOCCOCCOCCOCCC(=O)N[C@H]4CSCCC(=O)N5CN6CN(C5)C(=O)CCSC[C@H](NC(=O)[C@@H](CC(=O)O)NC(=O)[C@H](Cc5cccc7ccccc57)NC(=O)[C@@H]5CCCN5C4=O)C(=O)N[C@@H](CCSC)C(=O)N[C@@H](CCCCNC(=N)N)C(=O)N[C@@H](CC(=O)O)C(=O)N[C@@H](Cc4c[nH]c5ccccc45)C(=O)N[C@@H](CO)C(=O)N[C@@H]([C@@H](C)O)C(=O)N4CCC[C@H]4C(=O)N4C[C@H](O)C[C@H]4C(=O)N[C@@H](Cc4c[nH]c5ccccc45)C(=O)N[C@H](C(N)=O)CSCCC6=O)nn3)C(=O)N3CCC[C@H]3C(=O)N[C@@H](Cc3ccc(O)cc3)C(=O)N2)C(=O)CCSC[C@@H](C(N)=O)NC1=O	Tumor necrosis factor receptor superfamily member 9/Nectin-4	reporter gene, agonist, luciferase reporter	CD137 Jurkat reporter with HT-1376	6 h, geometric mean	relative to: wells without compound	Emax	45 fold
CCCc1nn(C)c2c(=O)[nH]c(-c3cc(S(=O)(=O)N4CCN(C)CC4)ccc3OCC)nc12	ABCG2	transport, inhibitor		100 µM, 5 (unit not given), pH 7, with: CCK-8		inhibition	58.7%
CCC(C)(c1ccc(O)cc1)c1ccc(O)cc1	Estrogen receptor (ESR1, Homo sapiens, UniProt P03372)	ITC		25 °C		ΔH	-16.9 kcal/mol
Cn1nccc1[C@]1(CNC(=O)c2ccc(F)c(F)c2-c2ccc(C(F)(F)F)cc2)NC(=O)NC1=O	CACNA1C	inhibitor	human cells			highest concentration without inhibition	> 10 µM
CCN(CCO)CCCC(C)Nc1ccnc2cc(Cl)ccc12 (stereo not shown)	SLC47A2	transport, inhibitor	transiently transfected cells	100 µM, 10 (unit not given), with: thiamine		inhibition	132%
O=c1ccc2ncc(=O)n3c2n1C[C@H]3CN1CCC(NCc2cc3c(cn2)OCCC3)CC1	SLC47A2		SLC47A2-overexpressing cells		relative to: control cells	uptake ratio	11.5 fold
CCCCCCCCc1ccc(CCC(N)(CO)CO)cc1	SLC47A2	transport, inhibitor	transiently transfected cells	100 µM, 10 (unit not given), with: thiamine		inhibition	8.8%
COc1ccccc1-c1cccc(CN2CCCC(C(=O)NCCc3ccc(F)cc3)C2)c1 (stereo not shown)	Vero-E6	CellTiter-Glo ATP		72 h, first round 5-point	relative to: DMSO 0%, hyamine -100%, more negative, more toxic	maximum response	-14.4%
CN1CCN(Cc2ccc(NC(=O)c3cncc(C#Cc4cnc(N)c5ncccc45)c3)cc2C(F)(F)F)CC1	CACNA1C	L-type calcium current, inhibitor				IC50	> 30 µM
O=C(NCCN1CCCCC1)c1ccc(-c2ccc(N3CCSCC3)nc2)cc1	Vero-E6	CellTiter-Glo ATP		concentration not given, 72 h, retest 8-point duplicates	relative to: DMSO 0%, hyamine -100%, more negative, more toxic	cytotoxicity efficacy	0%
C[C@H]1CN(c2n[nH]c3nc(N[C@H]4CC[C@H](NS(=O)(=O)CCC(F)(F)F)CC4)ncc23)CCO1	CDC7 (Homo sapiens, UniProt O00311)	inhibitor, Kinobeads competition profiling		0.032 µM	relative to: vehicle	relative abundance	1.03
CC1(C)[C@H](C(=O)OCc2cccc(Oc3ccccc3)c2)[C@@H]1C=C(Cl)Cl	CES2 human cytosolic			0.1 µM, age 5 years		enzyme contribution	5.57%
CCCC[C@@H]1NC(=O)[C@H](Cc2ccc(O)cc2)NC(=O)[C@@H]2CCCN2C(=O)[C@H](CC(=O)O)NC(=O)[C@H](C)NC(=O)[C@H](Cc2ccccc2)NC(=O)[C@@H]2CSCCC(=O)N3CN(CN(C3)C(=O)CCSC[C@@H](C(=O)N[C@@H](C)C(N)=O)NC1=O)C(=O)CCSC[C@H](NC(=O)[C@H](C)NC(C)=O)C(=O)N[C@@H]([C@@H](C)CC)C(=O)N[C@@H](CCC(=O)O)C(=O)N[C@@H](CCC(=O)O)C(=O)N[C@H](CCCCNC(=O)CCc1cn(CCOCCOCCOCCOCCOCCC(=O)N[C@H]3CSCCC(=O)N4CN5CN(C4)C(=O)CCSC[C@H](NC(=O)[C@@H](CC(=O)O)NC(=O)[C@H](Cc4cccc6ccccc46)NC(=O)[C@@H]4CCCN4C3=O)C(=O)N[C@@H](CCSC)C(=O)N[C@@H](CCCCNC(=N)N)C(=O)N[C@@H](CC(=O)O)C(=O)N[C@@H](Cc3c[nH]c4ccccc34)C(=O)N[C@@H](CO)C(=O)N[C@@H]([C@@H](C)O)C(=O)N3CCC[C@H]3C(=O)N3C[C@H](O)C[C@H]3C(=O)N[C@@H](Cc3c[nH]c4ccccc34)C(=O)N[C@H](C(N)=O)CSCCC5=O)nn1)C(=O)N[C@@H](CCC(N)=O)C(=O)N[C@@H](Cc1ccc(O)cc1)C(=O)N2	Tumor necrosis factor receptor superfamily member 9/Nectin-4	reporter gene, agonist, luciferase reporter	CD137 Jurkat reporter with HT-1376	6 h, geometric mean	relative to: wells without compound	Emax	28 fold
CC1(C)[C@H](C(=O)O[C@H](C#N)c2cccc(Oc3ccccc3)c2)[C@@H]1C=C(Br)Br	CES2 human cytosolic			0.1 µM, age 1 year		enzyme contribution	0.37%
CCCCc1nc(Cl)c(CO)n1Cc1ccc(-c2ccccc2-c2nn[nH]n2)cc1	ABCG2	transport, inhibitor		100 µM, 5 (unit not given), pH 7, with: CCK-8		inhibition	88.9%
CCCC[C@@H]1NC(=O)[C@H](Cc2ccc(O)cc2)NC(=O)[C@@H]2CCCN2C(=O)[C@H](CC(=O)O)NC(=O)[C@H](C)NC(=O)[C@H](Cc2ccccc2)NC(=O)[C@@H]2CSCCC(=O)N3CN(CN(C3)C(=O)CCSC[C@@H](C(=O)N[C@@H](C)C(N)=O)NC1=O)C(=O)CCSC[C@H](NC(C)=O)C(=O)N[C@@H](CC(C)(C)C)C(=O)N1CCC[C@H]1C(=O)N[C@@H](CCC(=O)O)C(=O)N[C@H](CCCCNC(=O)CCc1cn(CCOCCOCCOCCOCCOCCC(=O)NCCCC[C@H]3NC(=O)[C@H](Cc4cccc5ccccc45)NC(=O)[C@@H]4CCCN4C(=O)[C@@H](NC(C)=O)CSCCC(=O)N4CN5CN(C4)C(=O)CCSC[C@H](NC3=O)C(=O)N[C@@H](CCSC)C(=O)N[C@@H](CCCCNC(=N)N)C(=O)N[C@@H](CC(=O)O)C(=O)N[C@@H](Cc3c[nH]c4ccccc34)C(=O)N[C@@H](CO)C(=O)N[C@@H]([C@@H](C)O)C(=O)N3CCC[C@H]3C(=O)N3C[C@H](O)C[C@H]3C(=O)N[C@@H](Cc3c[nH]c4ccccc34)C(=O)N[C@H](C(N)=O)CSCCC5=O)nn1)C(=O)N1CCC[C@H]1C(=O)N[C@@H](Cc1ccc(O)cc1)C(=O)N2	Tumor necrosis factor receptor superfamily member 9/Nectin-4	reporter gene, agonist, luciferase reporter	CD137 Jurkat reporter with HT-1376	6 h, geometric mean	relative to: wells without compound	Emax	44 fold

Some of these lines once more:
SMILES	target or system	assay	system	setting	how to read	endpoint	result
Cn1nccc1[C@]1(CNC(=O)c2ccc(F)c(F)c2-c2ccc(C(F)(F)F)cc2)NC(=O)NC1=O	CACNA1C	inhibitor	human cells			highest concentration without inhibition	> 10 µM
